Results from different studies.
Every numbered part comes from another study and shows a few of its results, in no order. Positions count from the first letter of the parent shown.

Sample 1 — method: RNA Bind-n-Seq; molecule type: RNA; sample: in vitro; tested at: 1 µM; notes: whole 134-nt RNA, ends assumed; together with: 150 mM KCl; reference: input library; direction: higher = stronger binding; measurement: log2 enrichment
Target: Ras GTPase-activating protein-binding protein 1, C-terminal RGG region (G3BP1, Homo sapiens, UniProt Q13283)
Sequence of UniProt Q13283 (whole entry, looked up): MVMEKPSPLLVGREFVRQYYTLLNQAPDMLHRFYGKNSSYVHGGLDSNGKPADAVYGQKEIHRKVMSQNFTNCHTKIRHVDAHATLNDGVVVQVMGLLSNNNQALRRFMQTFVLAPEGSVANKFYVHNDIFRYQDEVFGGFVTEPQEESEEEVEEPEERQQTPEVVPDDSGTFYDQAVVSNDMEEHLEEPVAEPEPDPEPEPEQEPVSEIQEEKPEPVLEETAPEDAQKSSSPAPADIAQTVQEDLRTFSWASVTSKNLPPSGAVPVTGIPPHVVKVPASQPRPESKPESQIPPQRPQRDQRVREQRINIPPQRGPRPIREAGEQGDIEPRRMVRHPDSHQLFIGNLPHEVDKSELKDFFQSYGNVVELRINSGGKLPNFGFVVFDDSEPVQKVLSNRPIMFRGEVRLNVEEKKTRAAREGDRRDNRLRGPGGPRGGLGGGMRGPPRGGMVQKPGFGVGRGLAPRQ
Shared flanks, not repeated: GGGAGUUCUACAGUCCGACGAUC … UGGAAUUCUCGGGUGUCAAGG
UAACUUUAGAGGAGGAUCUGAUGGAUAUGGCAGUGGACGUGGAUUUGGGGAUGGCUAUAAUGGGUAUGGAGGAGGACCUGGAGGUGCCAA: -0.623
UGGCCCUGGUGGCAUGCGGGGAGGAAGAGGUGGCCUCAUGGAUCGUGGUGGUCCCGGUGGAAUGUUCAGAGGUGGCCGUGGUGGAGACGG: 3.05
GUCCUGUGCUACACAUCGUAUGUACCGAAUCAAACCCCCAAAUUUUUUUAAACCCAAAAAAGUAUUAUGUUACGCCGUUCGGAUCUGCAC: -0.677
UCCUGUGCUACACAUCGUAUGUACCGAAUCGGGGAAAGGGGUUUUUGGGGUUUUUGGGGAAAGUAUUAUGUUACGCCGUUCGGAUCUGCA: 1.76
UGGGAGGUGGAUUUUGUUUAUUUUUUUAGCUAAUUUCCAGGGGUGGGAAUUUUUUUUUAAUAUGUGUCAUGAAUAAAGUUGUUUUUGAAA: 2.8
GCAGGAAGUAAAAACAAAUGGAAAUGCUUCAGAUAGUGGCAGGGGUGGGGGUUGCUAAGGAAAGGGUGGGAUGGGAGUGGGUAAAGAGUU: 1.73
UGGCUCUGGUGGCAUGCGGGGAGGAAGAGGUGGCCUCAUGGAUCGUGGUGGUCCCGGUGGAAUGUUCAGAGGUGGCCGUGGUGGAGACAG: 1.88
CCUCAAGUCCUGUGCUACACAUCGUAUGUACCGAAUCGGGGAGGGAGGGGAGGAAAGUAUUAUGUUACGCCGUUCGGAUCUGCACUUCCA: 0.851
CCUCAAGUCCUGUGCUACACAUCGUAUGUACCGAAUCGGUUUUUGGUGGAGGAAAGUAUUAUGUUACGCCGUUCGGAUCUGCACUUCCAG: -0.596

Sample 2 — method: DHFR PCA, deep sequencing; sample: yeast; together with: (+)-ABA 200 µM; reference: wild-type fitted maximum; direction: higher = stronger binding; measurement: relative binding score
Target: ABI1, truncated, D143A, DHFR fusion (Arabidopsis thaliana)
Notes: methotrexate growth selection, single substitutions
Starting sequence: PYL1, truncated, DHFR fusion (Arabidopsis thaliana); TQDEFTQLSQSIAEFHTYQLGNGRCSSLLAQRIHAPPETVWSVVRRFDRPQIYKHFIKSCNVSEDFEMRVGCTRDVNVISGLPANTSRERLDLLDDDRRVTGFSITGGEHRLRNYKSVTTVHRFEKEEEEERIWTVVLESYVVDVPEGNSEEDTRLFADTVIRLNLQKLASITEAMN
P36H: 98.5%
D3K: 96.8%
F124N: 89.9%
D159W: 1.94%
T120C: 19.5%
I12N: 42.1%
V44H: -40.2%
V62Q: 48.4%
R45G: 46.6%
S26L: 43.3%
L20T: 102%
D153W: 2.96%
L164R: 101%
G23C: 83.1%
R113S: 100%
R123D: 94.8%
S80G: 53.9%
G148S: 83.4%
K58G: 86.3%
F5R: 96.8%
W134M: 107%
A84F: 49.6%
R163Q: 95%
V40M: -3.4%
H34G: 95.5%

Sample 3 — method: protein binding microarray; molecule type: double-stranded DNA, one strand shown; sample: in vitro; tested at: not given; reference: not given; direction: higher = stronger binding; measurement: E-score
Target: Histone acetyltransferase KAT6A, both winged helices, GST fusion (KAT6A, Homo sapiens, UniProt Q92794, residues 1-181)
Notes: 8-mer, flanks averaged, mean of 2 arrays, mostly near background
Residues (chain): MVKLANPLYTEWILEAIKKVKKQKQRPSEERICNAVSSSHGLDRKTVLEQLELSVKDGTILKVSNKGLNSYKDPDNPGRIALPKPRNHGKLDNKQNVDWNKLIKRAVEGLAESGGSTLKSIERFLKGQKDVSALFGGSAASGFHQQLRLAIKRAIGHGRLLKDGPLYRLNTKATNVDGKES
AAACTGTA: -0.0175
GTGGATAA: -0.0517
ATTTCGAG: -0.0439
ACATTGAC: 0.0239
GCTGCAAC: 0.0975
GACATCTC: -0.0215
ACTTAAGA: -0.00106
AAGTGAAG: -0.0856
AACGGCGA: 0.307
ACATTCGG: 0.0324
AGCGGGCG: 0.267
GGAGTAGA: -0.0767
AAACTCGG: 0.128
ACACCTTC: 0.0254
GATCATGC: -0.131
TAACCCTA: -0.161
CCTAGCTC: -0.166
CACACCGA: 0.0346
ACACTGGC: -0.0625
GACGTGGA: -0.0663
CACGTGCG: 0.198
AGCCGCAG: 0.15

Sample 4 — observed: peptide binding; molecule type: peptide; sample: yeast competitive growth; together with: B1-Cln2 chimera; direction: direction not given; measurement: enrichment score
PKNAKRNLSSEFAN: -0.347
PKRAKRKLYTSEISSP: -0.504
PAKRRLELGE: 0.158
DGCSPIKNWSPMRL: -0.203
GLPDFVFQQQPVESEA: 1.24
IVLICAKRSLCAAFSV: -1.11
SAVPLILPQAPSGPSY: 1.94
TARRIFQEPTEPKTKA: -0.769
VLVRTSACRSLFGPVD: -1.1
PARRRLRLSVDEVSSP: 0.105
KPHVSDEEEEEPPFYH: 1.33
KRNLLNEFDRII: 1.31
SMTDFYHSKRRLIFSK: -0.959
SSEVARHLLFQSHM: -1.04
FQDSGYNELKSCSFDN: 0.37
KPKPVKPVTFSTGIKM: 1.16
DTERAHSTLDEDLERW: 0.0401

Some of these lines once more (sample 1):
GUCCUGUGCUACACAUCGUAUGUACCGAAUCAAACCCCCAAAUUUUUUUAAACCCAAAAAAGUAUUAUGUUACGCCGUUCGGAUCUGCAC: -0.677
CCUCAAGUCCUGUGCUACACAUCGUAUGUACCGAAUCGGUUUUUGGUGGAGGAAAGUAUUAUGUUACGCCGUUCGGAUCUGCACUUCCAG: -0.596
GCAGGAAGUAAAAACAAAUGGAAAUGCUUCAGAUAGUGGCAGGGGUGGGGGUUGCUAAGGAAAGGGUGGGAUGGGAGUGGGUAAAGAGUU: 1.73
CCUCAAGUCCUGUGCUACACAUCGUAUGUACCGAAUCGGGGAGGGAGGGGAGGAAAGUAUUAUGUUACGCCGUUCGGAUCUGCACUUCCA: 0.851
UGGCCCUGGUGGCAUGCGGGGAGGAAGAGGUGGCCUCAUGGAUCGUGGUGGUCCCGGUGGAAUGUUCAGAGGUGGCCGUGGUGGAGACGG: 3.05
UGGGAGGUGGAUUUUGUUUAUUUUUUUAGCUAAUUUCCAGGGGUGGGAAUUUUUUUUUAAUAUGUGUCAUGAAUAAAGUUGUUUUUGAAA: 2.8
UCCUGUGCUACACAUCGUAUGUACCGAAUCGGGGAAAGGGGUUUUUGGGGUUUUUGGGGAAAGUAUUAUGUUACGCCGUUCGGAUCUGCA: 1.76
UGGCUCUGGUGGCAUGCGGGGAGGAAGAGGUGGCCUCAUGGAUCGUGGUGGUCCCGGUGGAAUGUUCAGAGGUGGCCGUGGUGGAGACAG: 1.88
